{"data": "Measurements of several laboratories", "note": "Every numbered part comes from another study and shows a few of its results, in no order."}
{"data": "Set 1", "target": "Centromere-binding protein 1, full length, His-tagged (CBF1, Saccharomyces cerevisiae, UniProt P17106, residues 1-351)", "technique": "competition protein-binding microarray", "form": "double-stranded DNA, one strand shown", "sample": "in vitro", "tested at": "2 µM", "notes": "whole 60-bp probe, lowest competitor level", "together with": "Pho4 competitor, 0.05 µM", "direction": "higher = stronger binding", "constant ends, left off below": "… GTCTTGATTCGCTTGACGCTGCTG", "UniProt P17106, sequence (whole entry, looked up)": "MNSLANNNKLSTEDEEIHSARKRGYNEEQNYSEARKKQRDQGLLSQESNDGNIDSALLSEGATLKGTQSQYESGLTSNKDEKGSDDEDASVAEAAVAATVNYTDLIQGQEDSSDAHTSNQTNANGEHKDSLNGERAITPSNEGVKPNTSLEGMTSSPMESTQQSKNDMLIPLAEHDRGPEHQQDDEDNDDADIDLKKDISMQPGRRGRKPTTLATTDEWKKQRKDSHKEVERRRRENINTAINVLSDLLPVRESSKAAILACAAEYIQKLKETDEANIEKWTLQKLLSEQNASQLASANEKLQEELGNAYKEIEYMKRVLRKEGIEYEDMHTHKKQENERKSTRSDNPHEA"}
{"Oligonucleotide": "GCGTTGCAGATCGCTCAGCTGACTTTGAAGCATCGC", "fluorescence intensity [a.u.]": 172}
{"Oligonucleotide": "CATACCCAACCTTGTCTTGTGGGTGAAGATATTTGT", "fluorescence intensity [a.u.]": 76.5}
{"Oligonucleotide": "CAATAATATCATAATCATATGACGGTTCTTCGTCAA", "fluorescence intensity [a.u.]": 224}
{"Oligonucleotide": "GTTTCTCAGATTCTGCACATGGTACTTGATCTTGGT", "fluorescence intensity [a.u.]": 138}
{"Oligonucleotide": "AGGCAAGGCGTACATGGCGTGACGGAGGGTTCAATG", "fluorescence intensity [a.u.]": 97.9}
{"Oligonucleotide": "AGGCAGACAAGCTGTCATGTGTTCTGATTATGCCAT", "fluorescence intensity [a.u.]": 404}
{"Oligonucleotide": "GTCTGCCGTTTGTTACATGTGGATGTGTTACTGAGT", "fluorescence intensity [a.u.]": 112}
{"Oligonucleotide": "TGGCCTAAGGTGAAGGTCGTGCTTTTTGTTCAATTG", "fluorescence intensity [a.u.]": 67.8}
{"Oligonucleotide": "CTTCTGTAAATTTTTCACGTGGTGTGAAGCGCCCCG", "fluorescence intensity [a.u.]": 982}
{"Oligonucleotide": "TATATCAGATAAGGACACGTGCCGATTCATTGGAAA", "fluorescence intensity [a.u.]": 2270}
{"Oligonucleotide": "TTCATTTTTGGTTAACTCGTGTAACTCTTCTTCCAA", "fluorescence intensity [a.u.]": 93.7}
{"Oligonucleotide": "AAATTACTAAGTTTTCACGTGGTTTACCCCGTATGA", "fluorescence intensity [a.u.]": 1270}
{"Oligonucleotide": "GTACGTTATTGCTGGCACGATCCTGTCGCTACGGCC", "fluorescence intensity [a.u.]": 64.9}
{"Oligonucleotide": "CTAACGAAGGTTTGTCACAGCACTTACAAGCCAAGT", "fluorescence intensity [a.u.]": 59.6}
{"Oligonucleotide": "CGTCCTAGTGATTGCGTGGTGGGTGCCATGAGGAAG", "fluorescence intensity [a.u.]": 88.3}
{"Oligonucleotide": "CACAATTGGTGGTGGACCGTGACGGACACCCAAAGC", "fluorescence intensity [a.u.]": 88.3}
{"Oligonucleotide": "CGGACGCTCAAACGATCCGTGACTCGGCGCCACAGG", "fluorescence intensity [a.u.]": 77}
{"Oligonucleotide": "TGGTATCGCGAAAGAAACGTGTAGGCAATTAGGACT", "fluorescence intensity [a.u.]": 118}
{"Oligonucleotide": "GATGTTGTCTGCTTTGTCGTGCTAACCAAACAGCAA", "fluorescence intensity [a.u.]": 80}
{"data": "Set 2", "target": "Histone acetyltransferase KAT6A, both winged helices, GST fusion (KAT6A, Homo sapiens, UniProt Q92794, residues 1-181)", "technique": "protein binding microarray", "form": "double-stranded DNA, one strand shown", "sample": "in vitro", "tested at": "not given", "notes": "8-mer, flanks averaged, mean of 2 arrays, mostly near background", "relative to": "not given", "direction": "higher = stronger binding", "Construct (chain)": "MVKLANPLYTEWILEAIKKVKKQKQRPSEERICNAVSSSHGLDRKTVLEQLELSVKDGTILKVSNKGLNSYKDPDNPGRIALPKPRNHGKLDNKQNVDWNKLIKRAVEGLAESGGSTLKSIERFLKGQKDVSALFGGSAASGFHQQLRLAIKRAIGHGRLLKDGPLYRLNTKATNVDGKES"}
{"Oligonucleotide": "AACTCCGA", "E-score": 0.0632}
{"Oligonucleotide": "CCAAAAAA", "E-score": -0.0361}
{"Oligonucleotide": "CCAAAGGG", "E-score": -0.254}
{"Oligonucleotide": "GGGCTCGA", "E-score": 0.129}
{"Oligonucleotide": "ATGGATTC", "E-score": -0.12}
{"Oligonucleotide": "ATTCGAGC", "E-score": -0.0912}
{"Oligonucleotide": "ACACGTAC", "E-score": -0.0221}
{"Oligonucleotide": "TAGGTCCA", "E-score": -0.132}
{"Oligonucleotide": "AAAAGTGG", "E-score": -0.151}
{"Oligonucleotide": "TGCCAGAA", "E-score": -0.0585}
{"Oligonucleotide": "AGATAAAT", "E-score": -0.0988}
{"Oligonucleotide": "ACTGCGTC", "E-score": 0.0757}
{"Oligonucleotide": "ATCGCTCA", "E-score": 0.0896}
{"Oligonucleotide": "CAGTACGA", "E-score": -0.0915}
{"Oligonucleotide": "ACCGACGG", "E-score": 0.361}
{"Oligonucleotide": "CGTCAGTC", "E-score": 0.0624}
{"Oligonucleotide": "CAATCCTA", "E-score": -0.123}
{"Oligonucleotide": "CGGCAGCC", "E-score": 0.262}
{"data": "Set 3", "target": "RNA binding protein fox-1 homolog 2, RRM domain, GST-SBP tag (RBFOX2, Homo sapiens, UniProt O43251-10, residues 100-194)", "technique": "RNA Bind-n-Seq", "form": "RNA", "sample": "in vitro", "tested at": "365 nM", "notes": "natural RNA segment, single round, ends assumed", "relative to": "no-protein control", "direction": "higher = stronger binding", "constant ends, left off below": "GGGAGUUCUACAGUCCGACGAUC … UGGAAUUCUCGGGUGCCAA", "Construct (chain)": "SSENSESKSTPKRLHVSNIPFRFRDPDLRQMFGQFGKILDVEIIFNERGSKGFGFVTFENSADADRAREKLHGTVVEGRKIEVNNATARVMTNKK"}
{"Oligonucleotide": "CAGCAGGGCUGAGGGGCCUAGGGCUGCCUGCUCUCCAAAGCAGAUGACCCAUGUGCGGCAGGGACUCGGCAAAGCUGUGAGGAGCUGAGCUCCGGAGACAGGCACAGCUC", "RBNS enrichment (R)": 0.534}
{"Oligonucleotide": "UGUUCUCCCUAACUCUUUGUUCCAGUGCUGGGAAUUGAAUAGUGAGGUUCAGGAUUGCUAAGCGAGUGCUCUACCACUGAUGUGCAUCCUUAGUCCUUGUUUGCUUUCUA", "RBNS enrichment (R)": 0.502}
{"Oligonucleotide": "CCACACCAACCCUGUGCUCUCUGGCCCCCAGCUGGCCACACUUCUCCAGGAGGGACCCUUGGACUUCUUUGUGUGUCCAGUUUGGCCUCCUGCCCAAACUGUCCAUUCCA", "RBNS enrichment (R)": 0.369}
{"Oligonucleotide": "GCAGACACACUGAUCUGAACAUCUGGCCCAAGUGAAGCAUGGCAUAUAGUGCCCUUGGAAGAAAAUUAGGCCUCAAAUGACAGUAGCAUUGAAGUGUUUGCUGCAGAGUU", "RBNS enrichment (R)": 1.3}
{"Oligonucleotide": "GCAUAUAAAAUUAAAAUAAAGAUUUUGGAAACAACAUAUUGCCAAAAUGAGAAUUACUUGGUAUUAUUUUGGUCUGUGGCUUCUAAGAUUUUUUAAAAUACAUGAAAAAU", "RBNS enrichment (R)": 1.13}
{"Oligonucleotide": "CCUUAAGACAGUAGAGAUGUCUCUCUUUUAUUUGAGUUUGUGACUGACUUUGCCUAUAUAUCUUUCUGGGGUUUUGUUUGUGUUUAAUUUUUAUUUUGCAUACUGAGGGU", "RBNS enrichment (R)": 2.01}
{"Oligonucleotide": "ACGUGCAGUCCCUGGGCACGGCGGGCCCUGCCAUGUGCUGGUAACGCAUGCCUGGGCCCUGCUGGGCUCUCCCACUCCAGGCGGACCCUGGGGGCCAGUGAAGGAAGCUC", "RBNS enrichment (R)": 0.19}
{"Oligonucleotide": "GCUAGUGUGGAGCUCAGCAUCCCCACCCCACCCCUCCUCCCUGUAGAGCUGAUUUGAGGCCUCCUUCUGGGGCUGGGCUCUGCAGGCCAGGUGGGUGUGGCCUGUGUUUU", "RBNS enrichment (R)": 3.41}
{"data": "Set 4", "target": "RING finger protein unkempt homolog, zinc fingers 1-6, GST-SBP tag (UNK, Homo sapiens, UniProt Q9C0B0, residues 30-357)", "technique": "RNA Bind-n-Seq", "form": "RNA", "sample": "in vitro", "tested at": "not given", "notes": "RNA with constant flanks, human-mouse chimeric sites, ends assumed", "relative to": "input RNA pool", "direction": "higher = stronger binding", "constant ends, left off below": "GGGAGUUCUACAGUCCGACGAUC … CAACAGAGGAUUGAGCAUCA", "UniProt Q9C0B0, sequence (30-357, looked up)": "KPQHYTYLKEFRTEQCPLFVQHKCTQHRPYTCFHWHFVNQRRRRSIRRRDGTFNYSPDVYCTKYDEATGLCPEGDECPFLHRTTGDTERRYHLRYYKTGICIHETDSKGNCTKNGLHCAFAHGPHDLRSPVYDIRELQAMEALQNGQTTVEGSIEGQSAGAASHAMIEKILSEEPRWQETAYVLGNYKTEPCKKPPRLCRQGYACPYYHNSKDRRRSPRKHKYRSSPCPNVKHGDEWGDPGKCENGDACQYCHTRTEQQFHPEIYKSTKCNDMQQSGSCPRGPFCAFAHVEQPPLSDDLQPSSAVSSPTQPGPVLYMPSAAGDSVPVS"}
{"Oligonucleotide": "GAGCGUCUUGCCCGCACCGGGAUCAUAGUGACCACUAGUGAGGCUGUCCUCCUACAGCUGGUGGCUGAUAAGGACCACCCGAAGUUCAAGGAAAUUCAGAACCUAAUUAAGGCGAGUGCC", "bound/input enrichment [ratio]": 0.147}
{"Oligonucleotide": "UUACCCGAGAACGAGGAUGAGCUGGAGAGCACCAACAGACGCUAUACCAAGAGGGACUGCAGCACUUUCCUCAGAACUAGUGAGACGGGCAUCGUGGACCAGGUCAUGGUAACUCUCAAC", "bound/input enrichment [ratio]": 0.203}
{"Oligonucleotide": "UUAUCCAAGACUCAACGAAAGACUCCAACCGUUAUUCAUAAACAUUAUCAAAUUCAUCGGAUUCGACAUUUUUAUAUGAGAAAAGUCAAAUUUACUCAACAGAAUUACCAUGAUAGACUG", "bound/input enrichment [ratio]": 0.789}
{"Oligonucleotide": "CUGAGGAUACCACUGAAGAGACCUUAAAAGAAUCAUUUGAGGGCUCUGUUCGUGCAAGAAUAGUCACUGAUCGGGAAAACUGGGUCCUCCAAAGGGUUGGUUUUGUAGACUUUAAUAGUG", "bound/input enrichment [ratio]": 1.26}
{"Oligonucleotide": "GGGUGGGUGGUCAUUGCCGUUUGAGCUGCUGAUUUUCAUGAGUCGCCUUCAAAACUCUCGUGUAGGGUUGACAAUGUGGGGGGGUGGGGGAUCCAGCUAUUUUUUUUAUUUUCAAGUCCA", "bound/input enrichment [ratio]": 1.62}
{"Oligonucleotide": "AAAGAGAAAGCUAAAACACUAAUAGAGAAGAGGAUUGGCAAAGAGAAUUUCAUAGAGAAACUAGGAUUUAUUAGCAAACAUGAGUUAUAUUCCAGAGCGUCUCAGAAAACCCCAGCCAAC", "bound/input enrichment [ratio]": 5.59}
{"Oligonucleotide": "AGUACUGACUCAGGCGGAUUUUGCAACACCAAGCUCACAGCAGCAGCAUCUUAGUCACAGUAGGGUAGUUUUGGGGCUCUGUGGCCAGGGUUUUAUUCAUGUGCAGGUUUGGAAAAUGUA", "bound/input enrichment [ratio]": 2.12}
{"Oligonucleotide": "CAGCCUCAGAGCCCAGACUUCCUGGAUAUCACCAACCCUAAAGCGGUAUUAGAAAAUGCAUUGAGAAACUUCGCCUGUCUGACGACUGGGGAUGUGAUUGCUAUCAACUACAAUGAGAAG", "bound/input enrichment [ratio]": 0.583}
{"note": "Excerpt of the above (set 1):"}
{"Oligonucleotide": "TATATCAGATAAGGACACGTGCCGATTCATTGGAAA", "fluorescence intensity [a.u.]": 2270}
{"Oligonucleotide": "CAATAATATCATAATCATATGACGGTTCTTCGTCAA", "fluorescence intensity [a.u.]": 224}
{"Oligonucleotide": "CGTCCTAGTGATTGCGTGGTGGGTGCCATGAGGAAG", "fluorescence intensity [a.u.]": 88.3}
